Measurements from different studies.
Compare with care: the assays were run in different laboratories. Values joined by “and” are separate records of one study, mostly repeats; a detail may differ. ± marks the error that the study gave.
4'-phosphopantetheinyl transferase PptT: 4'-phosphopantetheinyl transferase PptT (Mycobacterium tuberculosis, UniProt O33336)
UniProt O33336, sequence (whole entry, looked up): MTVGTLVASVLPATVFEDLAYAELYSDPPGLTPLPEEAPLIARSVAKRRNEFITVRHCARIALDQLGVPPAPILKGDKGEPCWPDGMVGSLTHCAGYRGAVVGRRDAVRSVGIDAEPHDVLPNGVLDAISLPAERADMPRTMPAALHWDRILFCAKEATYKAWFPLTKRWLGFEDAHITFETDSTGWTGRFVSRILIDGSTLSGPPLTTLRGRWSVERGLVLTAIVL
Psmb8: Proteasome subunit beta type-8 (Psmb8, Mus musculus, UniProt P28063)
UniProt P28063, sequence (whole entry, looked up): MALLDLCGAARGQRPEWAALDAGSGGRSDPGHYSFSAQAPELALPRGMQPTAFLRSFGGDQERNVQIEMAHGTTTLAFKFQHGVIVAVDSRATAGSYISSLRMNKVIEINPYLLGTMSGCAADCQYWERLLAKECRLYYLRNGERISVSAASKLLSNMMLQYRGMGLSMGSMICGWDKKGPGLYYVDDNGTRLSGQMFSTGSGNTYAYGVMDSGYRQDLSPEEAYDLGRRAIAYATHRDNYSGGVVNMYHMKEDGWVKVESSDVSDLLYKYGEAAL
EH domain-containing protein 1: EH domain-containing protein 1 (Homo sapiens, UniProt Q9H4M9)
UniProt Q9H4M9, sequence (whole entry, looked up): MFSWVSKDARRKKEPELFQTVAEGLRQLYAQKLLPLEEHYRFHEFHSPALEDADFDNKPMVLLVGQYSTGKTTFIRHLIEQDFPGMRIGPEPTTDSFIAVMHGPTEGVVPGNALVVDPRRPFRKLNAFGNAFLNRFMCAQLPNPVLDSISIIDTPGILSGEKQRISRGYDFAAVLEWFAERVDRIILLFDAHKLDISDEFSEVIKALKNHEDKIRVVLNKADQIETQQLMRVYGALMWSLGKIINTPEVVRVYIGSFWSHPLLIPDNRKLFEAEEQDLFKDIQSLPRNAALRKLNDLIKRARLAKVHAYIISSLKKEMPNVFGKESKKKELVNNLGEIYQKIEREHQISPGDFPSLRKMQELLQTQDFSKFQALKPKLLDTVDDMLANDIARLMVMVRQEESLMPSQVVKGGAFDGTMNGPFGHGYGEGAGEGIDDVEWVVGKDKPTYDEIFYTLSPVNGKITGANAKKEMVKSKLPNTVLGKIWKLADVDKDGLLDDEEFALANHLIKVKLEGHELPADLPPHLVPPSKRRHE
eis: N-acetyltransferase Eis (eis, Mycobacterium tuberculosis, UniProt P9WFK7)
UniProt P9WFK7, sequence (whole entry, looked up): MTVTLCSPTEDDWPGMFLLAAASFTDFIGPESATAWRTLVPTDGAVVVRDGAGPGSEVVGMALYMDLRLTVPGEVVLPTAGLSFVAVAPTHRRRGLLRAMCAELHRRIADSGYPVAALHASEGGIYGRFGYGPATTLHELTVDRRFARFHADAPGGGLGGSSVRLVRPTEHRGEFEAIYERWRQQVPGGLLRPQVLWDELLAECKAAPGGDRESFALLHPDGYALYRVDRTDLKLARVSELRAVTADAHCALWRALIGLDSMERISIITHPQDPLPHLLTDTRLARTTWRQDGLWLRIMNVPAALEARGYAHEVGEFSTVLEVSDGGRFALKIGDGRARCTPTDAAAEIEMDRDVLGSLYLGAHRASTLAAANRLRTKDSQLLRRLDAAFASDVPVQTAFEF
rep main protease: Replicase polyprotein 1ab, main protease (rep, Severe acute respiratory syndrome coronavirus 2, UniProt P0DTD1)
folA: Dihydrofolate reductase (folA, Mycobacterium tuberculosis, UniProt P9WNX1)
UniProt P9WNX1, sequence (whole entry, looked up): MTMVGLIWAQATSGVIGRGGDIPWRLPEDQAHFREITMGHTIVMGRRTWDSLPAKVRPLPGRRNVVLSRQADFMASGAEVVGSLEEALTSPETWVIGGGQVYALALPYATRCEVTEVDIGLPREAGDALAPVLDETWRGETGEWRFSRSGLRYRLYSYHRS
NA: Neuraminidase (NA, Influenza A virus, UniProt P03482)
UniProt P03482, sequence (whole entry, looked up): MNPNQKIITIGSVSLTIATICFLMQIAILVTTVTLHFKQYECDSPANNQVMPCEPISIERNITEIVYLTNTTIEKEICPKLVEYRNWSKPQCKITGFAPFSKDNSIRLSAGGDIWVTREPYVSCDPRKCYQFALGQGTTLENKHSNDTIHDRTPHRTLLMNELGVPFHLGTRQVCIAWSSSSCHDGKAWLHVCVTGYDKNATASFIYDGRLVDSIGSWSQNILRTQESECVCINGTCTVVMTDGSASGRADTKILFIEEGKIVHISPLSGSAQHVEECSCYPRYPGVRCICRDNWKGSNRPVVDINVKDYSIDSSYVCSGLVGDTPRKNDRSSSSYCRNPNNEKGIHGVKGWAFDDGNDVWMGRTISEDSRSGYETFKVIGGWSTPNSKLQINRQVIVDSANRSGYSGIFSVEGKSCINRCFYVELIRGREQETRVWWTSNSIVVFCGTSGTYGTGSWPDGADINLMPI
prcB open-gate 20S proteasome: Proteasome subunit beta, open-gate 20S proteasome (prcB, Mycobacterium tuberculosis, UniProt P9WHT9)
UniProt P9WHT9, sequence (whole entry, looked up): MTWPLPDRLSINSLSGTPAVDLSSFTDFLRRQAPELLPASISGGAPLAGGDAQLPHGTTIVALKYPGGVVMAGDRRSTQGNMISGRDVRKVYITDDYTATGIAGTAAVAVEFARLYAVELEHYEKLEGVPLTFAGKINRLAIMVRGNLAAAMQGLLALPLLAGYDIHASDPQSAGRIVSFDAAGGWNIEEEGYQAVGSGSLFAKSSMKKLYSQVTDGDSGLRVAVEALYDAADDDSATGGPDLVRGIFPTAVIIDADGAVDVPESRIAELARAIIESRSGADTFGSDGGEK
Polymerase acidic protein PA with PB1 subunit: Polymerase acidic protein, PA with PB1 subunit (Influenza A virus, UniProt P03433)
UniProt P33261, sequence (whole entry, looked up): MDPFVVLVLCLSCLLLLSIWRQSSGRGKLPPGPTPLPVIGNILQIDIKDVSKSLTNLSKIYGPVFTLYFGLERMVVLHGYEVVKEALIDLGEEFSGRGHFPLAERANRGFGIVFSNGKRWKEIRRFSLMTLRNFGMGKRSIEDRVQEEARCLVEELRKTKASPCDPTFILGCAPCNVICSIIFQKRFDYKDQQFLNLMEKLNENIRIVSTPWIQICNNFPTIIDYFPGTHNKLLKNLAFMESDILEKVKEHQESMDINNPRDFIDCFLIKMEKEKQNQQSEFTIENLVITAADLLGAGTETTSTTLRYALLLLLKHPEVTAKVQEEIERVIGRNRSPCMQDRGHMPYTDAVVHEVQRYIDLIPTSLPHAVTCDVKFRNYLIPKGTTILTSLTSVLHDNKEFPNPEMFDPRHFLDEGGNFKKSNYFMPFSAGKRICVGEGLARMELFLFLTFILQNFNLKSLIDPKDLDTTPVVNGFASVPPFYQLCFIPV
UniProt P16662, sequence (whole entry, looked up): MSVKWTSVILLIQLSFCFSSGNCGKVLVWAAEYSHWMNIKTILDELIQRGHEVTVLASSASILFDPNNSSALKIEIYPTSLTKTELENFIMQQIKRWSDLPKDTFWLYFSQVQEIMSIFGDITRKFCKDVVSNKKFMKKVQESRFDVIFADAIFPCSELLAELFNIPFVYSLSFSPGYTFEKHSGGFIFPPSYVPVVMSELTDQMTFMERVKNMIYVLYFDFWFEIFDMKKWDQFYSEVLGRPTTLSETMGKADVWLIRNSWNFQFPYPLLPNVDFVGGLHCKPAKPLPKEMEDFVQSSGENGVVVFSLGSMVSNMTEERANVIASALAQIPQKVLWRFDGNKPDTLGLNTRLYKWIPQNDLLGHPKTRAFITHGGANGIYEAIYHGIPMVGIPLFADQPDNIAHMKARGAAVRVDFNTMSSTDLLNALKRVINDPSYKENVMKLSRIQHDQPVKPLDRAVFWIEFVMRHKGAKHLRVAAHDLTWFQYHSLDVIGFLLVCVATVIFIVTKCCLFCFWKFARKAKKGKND
UniProt P27487, sequence (whole entry, looked up): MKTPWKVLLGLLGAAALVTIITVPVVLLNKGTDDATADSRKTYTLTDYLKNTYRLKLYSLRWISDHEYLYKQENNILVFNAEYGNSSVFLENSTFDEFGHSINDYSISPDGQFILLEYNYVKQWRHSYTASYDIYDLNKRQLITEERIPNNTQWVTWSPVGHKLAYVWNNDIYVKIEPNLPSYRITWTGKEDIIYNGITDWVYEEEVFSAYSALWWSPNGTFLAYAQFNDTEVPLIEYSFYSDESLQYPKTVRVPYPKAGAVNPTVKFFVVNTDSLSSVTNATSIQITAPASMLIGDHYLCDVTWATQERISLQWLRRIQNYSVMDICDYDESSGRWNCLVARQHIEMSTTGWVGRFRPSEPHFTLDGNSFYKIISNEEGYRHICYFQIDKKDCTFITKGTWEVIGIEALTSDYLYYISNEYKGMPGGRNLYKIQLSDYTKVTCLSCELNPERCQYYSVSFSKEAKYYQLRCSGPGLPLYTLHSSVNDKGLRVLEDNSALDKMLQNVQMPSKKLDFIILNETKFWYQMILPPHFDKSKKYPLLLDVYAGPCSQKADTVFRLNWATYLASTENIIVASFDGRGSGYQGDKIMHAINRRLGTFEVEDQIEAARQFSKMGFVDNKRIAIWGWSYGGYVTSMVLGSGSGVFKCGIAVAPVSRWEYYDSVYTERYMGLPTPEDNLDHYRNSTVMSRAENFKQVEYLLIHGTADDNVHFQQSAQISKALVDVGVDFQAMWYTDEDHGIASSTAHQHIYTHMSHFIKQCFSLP
UniProt O60656, sequence (whole entry, looked up): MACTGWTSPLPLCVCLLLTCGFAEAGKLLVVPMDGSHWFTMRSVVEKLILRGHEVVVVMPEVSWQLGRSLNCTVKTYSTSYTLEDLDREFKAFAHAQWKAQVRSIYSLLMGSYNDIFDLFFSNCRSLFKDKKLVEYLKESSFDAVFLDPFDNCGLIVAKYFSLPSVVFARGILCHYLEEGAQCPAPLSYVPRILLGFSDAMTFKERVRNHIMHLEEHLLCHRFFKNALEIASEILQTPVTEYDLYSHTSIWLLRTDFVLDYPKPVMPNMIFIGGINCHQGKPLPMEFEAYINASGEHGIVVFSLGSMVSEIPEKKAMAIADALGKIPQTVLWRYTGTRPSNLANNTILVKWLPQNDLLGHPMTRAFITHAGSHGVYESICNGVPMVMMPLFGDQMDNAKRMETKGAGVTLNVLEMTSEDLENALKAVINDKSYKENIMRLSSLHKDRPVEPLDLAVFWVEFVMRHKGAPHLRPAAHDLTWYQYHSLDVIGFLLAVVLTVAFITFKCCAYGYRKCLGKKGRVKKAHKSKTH

| Structure (SMILES) | target | assay | system | setting | IC50 |
| --- | --- | --- | --- | --- | --- |
| O=c1c2ccccc2[nH]c(=S)n1Cc1cccnc1 | 4'-phosphopantetheinyl transferase PptT | enzyme activity, inhibitor, fluorescence polarization | – | enzyme 100 nM | 0.85 µM |
| C#CCCNC(=O)[C@@H](NC(=O)N[C@H](C(=O)N[C@H]1/C=C/CCNC(=O)/C=C/[C@H](C(C)C)NC1=O)C(C)C)C(C)C | Psmb8 | inhibitor | – | – | 0.0032 µM |
| NC(=O)C[C@@H]1NC(=O)[C@H](Cc2ccc(O)cc2)NC(=O)CNC(=O)CNC(=O)[C@H](CCC(=O)O)NC(=O)[C@H](CCC(=O)O)NC(=O)[C@H](Cc2ccccc2)NC(=O)[C@@H]2CCCN2C1=O | EH domain-containing protein 1 | ligand displacement, FP | – | – | 49.2 µM |
| Cc1nc(=O)c2cc(CN(C)c3cccc(C(=O)N[C@@]4(C(=O)O)CC[C@@H](C(=O)O)C4)c3)ccc2[nH]1 | 4'-phosphopantetheinyl transferase PptT | enzyme activity, inhibitor, fluorescence polarization | – | enzyme 100 nM | 0.06 µM |
| CC(C)[C@H](NC(=O)N[C@H](C(=O)N[C@H]1/C=C/CCNC(=O)/C=C/[C@H](C(C)C)NC1=O)C(C)C)C(=O)O | Psmb8 | inhibitor | – | – | 0.18 µM |
| CCC1CCc2c(sc3nc(SCC(=O)NCCN4CCOCC4)nc(N)c23)C1 (centres unmarked) | eis | inhibitor | – | – | 19 ± 3 µM |
| Cc1nc(=O)c2cc(CN(C)c3ccc(C(=O)NCc4cccc(C(=O)O)c4)s3)ccc2[nH]1 | 4'-phosphopantetheinyl transferase PptT | enzyme activity, inhibitor, fluorescence polarization | – | enzyme 100 nM | 0.33 µM |
| CCCCCc1cc(O)c2c(c1)OC(C)(C)C1CCC(C)=CC21 (single isomer, unassigned; (-)) | UDP-glucuronosyltransferase 1A9 (UGT1A9, Homo sapiens, UniProt O60656) | enzyme activity, inhibitor | recombinant UGT1A9 microsomes from HEK293 | pH 7.4, glucuronidation, with: acetaminophen | 12 ± 3.7 µM |
| CC1CCc2c(sc3nc(SCCN4CCCCC4)nc(N)c23)C1 (centres unmarked) | eis | inhibitor | – | – | 2 ± 0.3 µM |
| Cc1nc(=O)c2cc(CN(C)c3ccc(C(=O)NCc4cc(=O)[nH]c(=O)[nH]4)s3)ccc2[nH]1 | 4'-phosphopantetheinyl transferase PptT | enzyme activity, inhibitor, fluorescence polarization | – | enzyme 100 nM | 0.53 µM |
| N#Cc1ccc(Nc2cccc(C(=O)NCCc3c[nH]c4cc(F)ccc34)c2)cc1 | rep main protease | – | – | cell-based | 37 ± 6 µM |
| O=S(=O)(O)CCOCC1CSSCC(COCCS(=O)(=O)O)SS1 (centres unmarked) | Response regulator PhoP (Mycobacterium tuberculosis, UniProt P71814) | DNA binding, fluorescence polarization | – | with: 6-FAM DNA 10 nM | 29 ± 1.6 µM |
| NC1=NC2(CCCCC2)N(c2ccc(OCc3cn(CCCCOc4ccc5ccc(=O)oc5c4)nn3)cc2)C(N)=N1 | folA | – | – | – | 0.93 µM and ~1 µM |
| Cc1nc(=O)c2cc(CN(C)c3cccc(C(=O)N4CCCS(=N)(=O)CC4)c3)ccc2[nH]1 (centres unmarked) | 4'-phosphopantetheinyl transferase PptT | enzyme activity, inhibitor, fluorescence polarization | – | enzyme 100 nM | 24 µM |
| CCC1CN2CCC3(O)C(=Nc4cccc(OC)c43)C2CC1C(=COC)C(=O)OC (centres unmarked) | UDP-glucuronosyltransferase 2B7 (UGT2B7, Homo sapiens, UniProt P16662) | enzyme activity, inhibitor | – | 2 h, pH 7.4 | 26.4 µM |
| C[C@@H]1NC(=O)[C@@H]2CCCN2C(=O)[C@H](C)NC(=O)[C@H](Cc2ccc(O)cc2)NC(=O)CNC(=O)CNC(=O)[C@H](CCC(=O)O)NC(=O)[C@H](CCC(=O)O)NC1=O | EH domain-containing protein 1 | ligand displacement, FP | – | – | > 450 µM |
| CC1CCc2c(sc3nc(SCC(=O)NCCN4CCCCC4)nc(N)c23)C1 (centres unmarked) | eis | inhibitor | – | – | 3.7 ± 0.6 µM |
| Cc1cc(O)cc(O)c1C(=O)O[C@@H]1CC2=C(COC(/C=C/CO)=C2)C(=O)[C@]1(C)O | NA | – | influenza A virus H3N2 | – | 261 µM and 244 µM |
| Nc1nc(SCCN2CCCC2)nc2sc3c(c12)CCC3 | eis | inhibitor | – | – | 2.2 ± 0.3 µM |

| Structure (SMILES) | target | assay | system | setting | IC50 |
| --- | --- | --- | --- | --- | --- |
| Cc1cc(O)cc(O)c1C(=O)O[C@@H]1CC2=C(COC(CC(C)O)=C2)C(=O)[C@]1(C)O (some centres unmarked) | NA | – | influenza A virus H3N2 | – | 231 µM and 236 µM |
| O=C(Nc1nc2c(s1)CCN(Cc1ccccc1)C2)c1ccc2c(=O)n3c(nc2c1)CCCCC3 | rep main protease | cell-based | – | – | 59 ± 10 µM |
| COC(=O)[C@H](CC(C)C)NC(=O)[C@@H]1CCCN1C(=O)[C@@H](NC(=O)[C@@H](NC(=O)c1cnccn1)C(C)C)C(C)C | Chaperone protein DnaK, with DnaJ2, GrpE (dnaK, Mycobacterium tuberculosis, UniProt P9WMJ9) | – | – | – | 76 µM |
| CCCCCc1cc(O)c2c(c1)OC(C)(C)C1CCC(C)=CC21 (single isomer, unassigned; (-)) | Cytochrome P450 2C19 (CYP2C19, Homo sapiens, UniProt P33261) | inhibitor | HEK cell microsomes | 30 min preincubation without NADPH | 3.2 ± 2.5 µM |
| Nc1nc(SCCCN2CCCCC2)nc2sc3c(c12)CCC(c1ccccc1)C3 (centres unmarked) | eis | inhibitor | – | – | 0.23 ± 0.08 µM |
| CC(c1cccc(Cl)c1)N(C)C(=O)Cn1nnc2ccccc21 (centres unmarked) | rep main protease | cell-based | – | – | 642 ± 204 µM |
| CCN(CC)C(=O)C[C@H](NC(=O)CCc1ccccc1)C(=O)N[C@@H](C)C(=O)NCc1cccc2ccccc12 | prcB open-gate 20S proteasome | enzyme activity, inhibitor | – | with: LLVY substrate | 0.041 ± 0.006 µM |
| CCCCc1nc(Cl)c(C(=O)O)n1Cc1ccc(-c2ccccc2-c2nn[nH]n2)cc1 | Succinyl-CoA:glutarate CoA-transferase (SUGCT, Homo sapiens, UniProt Q9HAC7) | enzyme activity, inhibitor, coupled fluorometric | – | pH 7.4 | 1.7 µM |
| CC(C)C[C@H](N)C(=O)N1CCC[C@H]1C(=O)N[C@@H](Cc1ccccc1)C(=O)N[C@@H](C)C(=O)O | Dipeptidyl peptidase 4 (DPP4, Homo sapiens, UniProt P27487) | – | – | – | 268 ± 7.2 µM |
| O=C(NN=Cc1cc(O)c(O)cc1O)c1cc2ccccc2cc1O | 4'-phosphopantetheinyl transferase PptT | enzyme activity, inhibitor, fluorescence polarization | – | enzyme 100 nM | 6.8 µM and 7.9 µM |
| Nc1nc(SCCN2CCCC2)nc2sc3c(c12)CCC(c1ccccc1)C3 (centres unmarked) | eis | inhibitor | – | – | 4 ± 1.1 µM |
| Cc1nc(=O)c2cc(CN(C)c3ccc(C(=O)N4CCc5ccc(C(=O)O)cc5C4)s3)ccc2[nH]1 | 4'-phosphopantetheinyl transferase PptT | enzyme activity, inhibitor, fluorescence polarization | – | enzyme 100 nM | 2.03 µM |
| COC[C@H](NC(=O)[C@H](CC(=O)N1CCCC1)NC(=O)CCc1ccccc1)C(=O)NCc1cccc2ccccc12 | prcB open-gate 20S proteasome | enzyme activity, inhibitor | – | with: LLVY substrate | 0.016 ± 0.002 µM |
| Cc1cc(-c2ccccc2)nc2nc(-c3nc4sc5c(c4c(=O)o3)CCCCC5)nn12 | Polymerase acidic protein PA with PB1 subunit | PA-PB1 interaction, inhibitor, ELISA | – | – | 15 ± 5 µM |
| Nc1nc(SCCN2CCCC2)nc2sc3c(c12)CCCCC3 | eis | inhibitor | – | – | 6.6 ± 0.6 µM |
| CC(=O)Oc1cccc2[nH]cc(CC[N+](C)(C)C)c12 | Sodium-dependent serotonin transporter (Slc6a4, Rattus norvegicus, UniProt P31652) | transporter uptake, inhibitor, radiometric | – | – | 3.5 µM |
| COC(=O)[C@H](CCCNC(=O)OC(C)(C)C)NC(=O)c1ccc(NCc2ccc3nc(N)nc(N)c3c2Cl)cc1 | folA | enzyme activity, inhibitor | – | – | 0.0384 µM |
| Nc1nc(SCCCN2CCCCC2)nc2sc3c(c12)CCC3 | eis | inhibitor | – | – | 0.75 ± 0.06 µM |
| Cc1cc(-c2ccccc2)n2nc(-c3nc4sc5c(c4c(=O)o3)CCCCC5)nc2n1 | Polymerase acidic protein PA with PB1 subunit | PA-PB1 interaction, inhibitor, ELISA | – | – | 19 ± 1 µM |

Repeated from above:
| Structure (SMILES) | target | assay | system | setting | IC50 |
| --- | --- | --- | --- | --- | --- |
| COC[C@H](NC(=O)[C@H](CC(=O)N1CCCC1)NC(=O)CCc1ccccc1)C(=O)NCc1cccc2ccccc12 | prcB open-gate 20S proteasome | enzyme activity, inhibitor | – | with: LLVY substrate | 0.016 ± 0.002 µM |
| CC(C)[C@H](NC(=O)N[C@H](C(=O)N[C@H]1/C=C/CCNC(=O)/C=C/[C@H](C(C)C)NC1=O)C(C)C)C(=O)O | Psmb8 | inhibitor | – | – | 0.18 µM |
